Measurements gathered from unrelated publications.
HLA class I histocompatibility antigen, A alpha chain allele A*02:01: HLA class I histocompatibility antigen, A alpha chain, allele A*02:01 (Homo sapiens, UniProt P04439)
B1: CYP4F3 A27G/C46R/I34V/M14V/R49Q/W12G (Homo sapiens, UniProt Q08477); chain MALLLAVFLLGPVAASPWLLLLLVGGSWLLARVLAWTYTFYDNCRRLQCFPQPPKRNWFLGHLGLVTPTEQGMRVLTQLVATYPQGFKVWMGPIFPVIRFCHPNIIRSVINASAAIVPKDKVFYSFLKPWLGDGLLLSAGEKWSRHRRMLTPAFHFNILKPYMKIFNESVNIMHAKWQLLASEGSARLDMFEHISLMTLDSLQKCVFSFDSHCQEKPSEYIAAILELSALVTKRHQQILLYIDFLYYLTPDGQRFRRACRLVHDFTDAVIQERRRTLPSQGVDDFLQAKAKSKTLDFIDVLLLSKDEDGKKLSDEDIRAEADTFMFEGHDTTASGLSWVLYHLAKHPEYQERCRQEVQELLKDREPKEIEWDDLAQLPFLTMCIKESLRLHPPVPAVSRCCTQDIVLPDGRVIPKGIICLISVFGTHHNPAVWPDPEVYDPFRFDPKNIKERSPLAFIPFSAGPRNCIGQAFAMAEMKVVLGLTLLRFRVLPDHTEPRRKPELVLRAEGGLWLRVEPLS
B2: enzyme W53F (Thermoplasma volcanium, UniProt Q978S7); chain MAFHGLVKYSDITVEGYPKIQYHGFIGNNRTAMLVAMNGYIDFGCLPNFNSNAVFSSILDKNKGGYFAIFPSDTTDVYVDQYYKEMTNVLVTEFVKNGKIILRLTDFMPDSEYGKISFPEVHRFVESFSEPIDITIDFKPTFNYGQDKPIIEKDQHGFIFTTDKESIGISSEFPLRKNSDRIFGNVKMEPRSSSWIIALYGIHHLFRTTDYKSYLRLQETTDYWRKWASSSSYAGAYHSMVMRSALALKVLFYEPTGLMVAAPTASLPEAIGGERNWDYRFTWIRDTAYVIEALSSIGYKYEATEFLYDMMDMITRDNRIRTIYSIDDSNDLEERIIDYEGYRGSRPVRIGNKAVDQLQIDQYGSIVRAIHSMAKAGGIVNSYLWDFVEQVMAKIEYLWKYPDSSIWEFRTEPKQYVYSKVMSWAAFDSAISMAKDLGLSAPIKQWKSIQDEIKKEVLEKGFDTDTNSFVQYYGSKNIDAALLRLPILGFIPANDEKFLGTLSRIEKELMVDGYLFKRYREDDGLKGDEGSFLMLTFWYIEDLILMKRLKKAREVLESVLEKANHLGLYSEEIDEKSGDFLGNFPQALSHLGVIRVAPKLEEALLKRTSKINS
B3: enzyme (Nicotiana tabacum, UniProt Q70G33); chain MGSEKMMKINIKESTLVKPSKPTPTKRLWSSNLDLIVGRIHLLTVYFYKPNGSSNFFDSKIMKEALSNVLVSFYPMAGRLARDEQGRIEINCNGEGVLFVEAESDAFVDDFGDFTPSLELRKLIPTVDTSGDISTFPLIIFQVTRFKCGGVSLGGGVFHTLSDGLSSIHFINTWSDIARGLSVAIPPFIDRTLLRARDPPTSSFEHVEYHPPPSLISSSKSLESTSPKPSTTTMLKFSSDQLGLLKSKSKHDGSTYEILAAHIWRCTCKARALSDDQLTKLHVATDGRSRLCPPLPPGYLGNVVFTGTPMAKSSELLQEPLTNSAKRIHSALSKMDDNYLRSALDYLELLPDLSALIRGPTYFASPNLNINSWTRLPVHDSDFGWGRPIHMGPACILYEGTVYILPSPNSKDRNLRLAVCLDADHMPLFEKYLYEF
B4: enzyme (UniProt A0A6P1VWL4); chain QTSYQPTPDNLAARKAFQDDKFGLFIHWGVYSILGDGEWVMNQRQIPIKDYEKLPTFFNPTAFDAKEWVTMAKNAGMKYITITSKHHDGFAMYDSKVSDYDIVDRTPYKKDVLKALADECRAQGIKLFFYHSHLDWHHPDYFPRGQTGKTAGRPESGDFDKYLTYMDTQLSELLTNYGPVGGIWFDGWWDQSAHDKNDPHKTVVDWKLDRTYSLIHKLQPAALIGNNHHVAPFPGEDFQMFEKDLPGQNKTGFSGESVIGQLPLETCETMNGAWGFNIKDNRYKSTKDLVQYLVKAAGHNANFLLNVGPMPNGKIQPEFVKTLAEVGQWMQKNGETIYGTRGGPVPARDWGVTTAVGNRVFVHILNWEDRQLTLPPVSGKIRSAKLFADKSPVKVVQTPEGIVLTMNSAPSADATDTIIELEMAPEVAKK
B5: enzyme (UniProt P0DY30); chain ESPWIGVHFMVYTDKMLDQLAEQLPALSKRGVTHLILEINYHFAYKSHPELAPTNGITVVGAKKFADTARAHHIEIIPQINCLGHQSWKQNNAALLKHYPQFDETPGAYPDNKDIYCRSWCPQHPEVNRVVFALIDELIDAFEAKAFHVGMDEVFLIASEHCERCRGGDPAALFAKAVNDLHGHIVGKRGVQMLMWGDRLLDAEQTGYGKWEASGNGTAPAIDRIPKDIVLCDWHYEKRDRYPSLAVFLDKGFRVWPAGWKKPEAAEAFAAAARGCQNPRLLGYLCTTWGAVEIPNLADWPALLRPIEKIIAP
Sequence of UniProt P35503 (whole entry, looked up): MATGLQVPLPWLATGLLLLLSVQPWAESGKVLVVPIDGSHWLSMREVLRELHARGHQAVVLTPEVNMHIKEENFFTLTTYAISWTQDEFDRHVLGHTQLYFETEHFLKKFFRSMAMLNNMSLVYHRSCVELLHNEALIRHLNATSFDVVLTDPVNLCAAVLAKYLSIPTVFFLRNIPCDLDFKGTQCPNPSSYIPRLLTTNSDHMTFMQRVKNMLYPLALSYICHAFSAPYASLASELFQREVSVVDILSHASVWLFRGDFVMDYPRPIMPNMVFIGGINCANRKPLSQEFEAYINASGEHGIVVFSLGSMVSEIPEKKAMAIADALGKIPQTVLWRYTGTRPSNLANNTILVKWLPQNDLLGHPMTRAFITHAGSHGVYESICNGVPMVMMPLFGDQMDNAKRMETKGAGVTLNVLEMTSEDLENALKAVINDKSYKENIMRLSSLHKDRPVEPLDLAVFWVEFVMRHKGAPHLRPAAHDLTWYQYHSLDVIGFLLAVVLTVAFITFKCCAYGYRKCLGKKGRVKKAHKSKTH

Molecule | tested on | assay | system | setting | scale | measurement | value
TASPAKETSF | human MAGI1-2/6 PDZ construct (MBP fusion) | automated holdup | peptide, purified PDZ protein | concentration not given, unit not given | baseline: biotin control resin, higher = stronger binding | binding intensity | -0.0731
ALYDVRTIL | HLA class I histocompatibility antigen, A alpha chain allele A*02:01 | peptide-MHC stability, brefeldin A chase | peptide, T2 cells |  |  | complex half-life | 6.64 h
human alpha-1-acid glycoprotein 1 |  | co-immunoprecipitation | human RBC cytosol | no crosslinker, unit not given, with: Band 3 peptide 1-56 bait | baseline: negative control | co-IP enrichment | 0
HMBS (Homo sapiens, UniProt P08397) | NCc1[nH]cc(CCC(=O)O)c1CC(=O)O | steady-state kinetics |  |  |  | Km | 125 µM
B1 | CCCCC/C=C\C/C=C\C/C=C\C/C=C\CCCC(=O)O | steady-state kinetics |  | pH 7.4 |  | Km | 29.3 µM
enzyme (Chlamydomonas reinhardtii, UniProt A0A2K3D977) | O=C(CO)COP(=O)(O)O | steady-state kinetics |  | pH 7.5, with: NADH 500 µM |  | Km | 820 µM
B2 (enzyme W53F) | OC[C@H]1O[C@H](O[C@H]2O[C@H](CO)[C@@H](O)[C@H](O)[C@H]2O)[C@H](O)[C@@H](O)[C@@H]1O | steady-state kinetics |  | pH 3.7, 30 °C |  | Km | 66500 µM
B3 (enzyme) | O=C(O)[C@]1(O)C[C@@H](O)[C@@H](O)[C@H](O)C1 | steady-state kinetics |  | pH 7.5, 37 °C |  | Km | 850 µM
enzyme (UniProt A0A097IUD8) | C=C(OP(=O)(O)O)C(=O)O | steady-state kinetics |  | pH 6, 25 °C, with: 2 mM ADP |  | Km | 1330 µM
SLLDYVREH | HLA class I histocompatibility antigen, A alpha chain allele A*02:01 | conformational ELISA | peptide | concentration not given | baseline: positive control peptide, direction not given | binding score | 15.2%
GGGAGAACUUCGACCAGAAGCUACCAGGUCUUGCACAUUACGCGACAACCAAGCCCCGCCUAUGUGCGCAUACAUGGAUCCUC (ssRNA; 2'-fluoro pyrimidines) | integrin alphaV/beta3 31-992/27-718 (Homo sapiens) | SPR | RNA | with: MnCl2 1 mM | higher = more binding | relative binding | 21.9 RU
B4 (enzyme) | C[C@@H]1O[C@@H](Oc2ccc([N+](=O)[O-])cc2Cl)[C@@H](O)[C@H](O)[C@@H]1O | steady-state kinetics |  | pH 6.4, 37 °C |  | Km | 1830 µM
B5 (enzyme) | CC(=O)N[C@H]1[C@H](Oc2ccc([N+](=O)[O-])cc2)O[C@H](CO)[C@@H](O)[C@@H]1O[C@@H]1O[C@H](CO)[C@H](O)[C@H](O)[C@H]1O | steady-state kinetics |  | pH 6, 50 °C |  | Km | 1090 µM
enzyme (UniProt A0A4R3LQ44) | O=C(O)[C@H](O)[C@@H](O)[C@@H](O)[C@H](O)CO | steady-state kinetics |  | pH 7.5, 50 °C |  | Km | 3800 µM
UGT1A3 (Homo sapiens, UniProt P35503) | O=c1cc(C(F)(F)F)c2ccc(O)cc2o1 | steady-state kinetics |  | 37 °C, not purified |  | Km | 58 µM

A few entries again:
Molecule | tested on | assay | system | setting | scale | measurement | value
B4 (enzyme) | C[C@@H]1O[C@@H](Oc2ccc([N+](=O)[O-])cc2Cl)[C@@H](O)[C@H](O)[C@@H]1O | steady-state kinetics |  | pH 6.4, 37 °C |  | Km | 1830 µM
